{"data": "Experimental data of several laboratories", "T1": "DNA aptamer; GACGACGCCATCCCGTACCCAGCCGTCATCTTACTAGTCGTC", "T2": "FMN riboswitch RNA, two annealed strands (Fusobacterium nucleatum); chain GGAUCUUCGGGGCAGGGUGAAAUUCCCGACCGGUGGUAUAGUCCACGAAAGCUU; chain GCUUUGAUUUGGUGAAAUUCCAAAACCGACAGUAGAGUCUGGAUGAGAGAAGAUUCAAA", "note": "Several values in a cell are separate wells, animals, samples, runs or records. ± gives the spread as reported.", "chain of UniProt P51575 (whole entry, unmodified, looked up)": "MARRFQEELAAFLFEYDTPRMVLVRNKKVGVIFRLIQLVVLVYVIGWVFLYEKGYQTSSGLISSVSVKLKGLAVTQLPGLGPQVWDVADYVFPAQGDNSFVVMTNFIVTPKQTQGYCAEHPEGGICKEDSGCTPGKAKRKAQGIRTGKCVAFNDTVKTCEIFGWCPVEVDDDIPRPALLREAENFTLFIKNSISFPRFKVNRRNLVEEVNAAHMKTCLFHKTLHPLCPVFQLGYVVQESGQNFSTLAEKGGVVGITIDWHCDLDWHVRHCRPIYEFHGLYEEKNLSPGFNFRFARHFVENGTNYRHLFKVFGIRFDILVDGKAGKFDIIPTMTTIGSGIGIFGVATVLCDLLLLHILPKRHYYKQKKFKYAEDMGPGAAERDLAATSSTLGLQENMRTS", "chain of UniProt P00441 (whole entry, unmodified, looked up)": "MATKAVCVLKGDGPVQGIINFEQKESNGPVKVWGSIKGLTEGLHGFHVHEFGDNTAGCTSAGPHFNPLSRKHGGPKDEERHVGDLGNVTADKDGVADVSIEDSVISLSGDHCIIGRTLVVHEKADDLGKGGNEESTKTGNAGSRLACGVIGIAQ", "chain of UniProt Q9NR97 (whole entry, looked up)": "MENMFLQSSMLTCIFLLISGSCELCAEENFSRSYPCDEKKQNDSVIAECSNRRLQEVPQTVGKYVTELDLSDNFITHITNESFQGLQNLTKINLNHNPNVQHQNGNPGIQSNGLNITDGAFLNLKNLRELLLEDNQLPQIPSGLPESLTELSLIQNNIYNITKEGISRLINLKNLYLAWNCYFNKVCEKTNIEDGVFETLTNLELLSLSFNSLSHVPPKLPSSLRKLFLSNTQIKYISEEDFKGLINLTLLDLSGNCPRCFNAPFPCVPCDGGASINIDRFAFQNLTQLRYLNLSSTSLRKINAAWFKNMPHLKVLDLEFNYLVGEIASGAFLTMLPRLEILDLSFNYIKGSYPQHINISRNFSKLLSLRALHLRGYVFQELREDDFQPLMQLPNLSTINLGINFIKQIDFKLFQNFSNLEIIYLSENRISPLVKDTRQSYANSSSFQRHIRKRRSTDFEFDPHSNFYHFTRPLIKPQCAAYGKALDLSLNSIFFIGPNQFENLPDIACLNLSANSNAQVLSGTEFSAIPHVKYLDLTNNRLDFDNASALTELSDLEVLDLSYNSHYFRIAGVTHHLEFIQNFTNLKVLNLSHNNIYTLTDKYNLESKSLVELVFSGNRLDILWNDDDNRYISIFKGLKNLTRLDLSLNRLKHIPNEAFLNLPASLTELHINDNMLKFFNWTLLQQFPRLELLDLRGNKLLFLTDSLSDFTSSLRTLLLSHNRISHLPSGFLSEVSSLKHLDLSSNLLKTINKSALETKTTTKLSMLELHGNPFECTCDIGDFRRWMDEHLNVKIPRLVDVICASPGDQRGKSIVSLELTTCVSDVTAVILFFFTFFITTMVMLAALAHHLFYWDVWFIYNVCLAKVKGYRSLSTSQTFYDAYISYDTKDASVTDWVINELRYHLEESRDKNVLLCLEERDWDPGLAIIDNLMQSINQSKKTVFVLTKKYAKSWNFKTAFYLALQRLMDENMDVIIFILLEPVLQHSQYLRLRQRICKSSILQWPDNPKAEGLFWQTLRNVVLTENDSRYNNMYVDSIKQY", "chain of UniProt Q01105 (whole entry, unmodified, looked up)": "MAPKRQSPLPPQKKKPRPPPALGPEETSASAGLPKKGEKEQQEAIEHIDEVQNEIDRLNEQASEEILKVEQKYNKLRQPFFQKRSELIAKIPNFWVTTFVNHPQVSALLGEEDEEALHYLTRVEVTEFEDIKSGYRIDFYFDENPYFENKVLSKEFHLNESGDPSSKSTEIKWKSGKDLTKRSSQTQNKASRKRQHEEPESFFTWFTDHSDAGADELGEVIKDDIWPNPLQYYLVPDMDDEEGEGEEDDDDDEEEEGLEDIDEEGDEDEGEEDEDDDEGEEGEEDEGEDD", "chain of UniProt Q09472 (whole entry, unmodified, looked up)": "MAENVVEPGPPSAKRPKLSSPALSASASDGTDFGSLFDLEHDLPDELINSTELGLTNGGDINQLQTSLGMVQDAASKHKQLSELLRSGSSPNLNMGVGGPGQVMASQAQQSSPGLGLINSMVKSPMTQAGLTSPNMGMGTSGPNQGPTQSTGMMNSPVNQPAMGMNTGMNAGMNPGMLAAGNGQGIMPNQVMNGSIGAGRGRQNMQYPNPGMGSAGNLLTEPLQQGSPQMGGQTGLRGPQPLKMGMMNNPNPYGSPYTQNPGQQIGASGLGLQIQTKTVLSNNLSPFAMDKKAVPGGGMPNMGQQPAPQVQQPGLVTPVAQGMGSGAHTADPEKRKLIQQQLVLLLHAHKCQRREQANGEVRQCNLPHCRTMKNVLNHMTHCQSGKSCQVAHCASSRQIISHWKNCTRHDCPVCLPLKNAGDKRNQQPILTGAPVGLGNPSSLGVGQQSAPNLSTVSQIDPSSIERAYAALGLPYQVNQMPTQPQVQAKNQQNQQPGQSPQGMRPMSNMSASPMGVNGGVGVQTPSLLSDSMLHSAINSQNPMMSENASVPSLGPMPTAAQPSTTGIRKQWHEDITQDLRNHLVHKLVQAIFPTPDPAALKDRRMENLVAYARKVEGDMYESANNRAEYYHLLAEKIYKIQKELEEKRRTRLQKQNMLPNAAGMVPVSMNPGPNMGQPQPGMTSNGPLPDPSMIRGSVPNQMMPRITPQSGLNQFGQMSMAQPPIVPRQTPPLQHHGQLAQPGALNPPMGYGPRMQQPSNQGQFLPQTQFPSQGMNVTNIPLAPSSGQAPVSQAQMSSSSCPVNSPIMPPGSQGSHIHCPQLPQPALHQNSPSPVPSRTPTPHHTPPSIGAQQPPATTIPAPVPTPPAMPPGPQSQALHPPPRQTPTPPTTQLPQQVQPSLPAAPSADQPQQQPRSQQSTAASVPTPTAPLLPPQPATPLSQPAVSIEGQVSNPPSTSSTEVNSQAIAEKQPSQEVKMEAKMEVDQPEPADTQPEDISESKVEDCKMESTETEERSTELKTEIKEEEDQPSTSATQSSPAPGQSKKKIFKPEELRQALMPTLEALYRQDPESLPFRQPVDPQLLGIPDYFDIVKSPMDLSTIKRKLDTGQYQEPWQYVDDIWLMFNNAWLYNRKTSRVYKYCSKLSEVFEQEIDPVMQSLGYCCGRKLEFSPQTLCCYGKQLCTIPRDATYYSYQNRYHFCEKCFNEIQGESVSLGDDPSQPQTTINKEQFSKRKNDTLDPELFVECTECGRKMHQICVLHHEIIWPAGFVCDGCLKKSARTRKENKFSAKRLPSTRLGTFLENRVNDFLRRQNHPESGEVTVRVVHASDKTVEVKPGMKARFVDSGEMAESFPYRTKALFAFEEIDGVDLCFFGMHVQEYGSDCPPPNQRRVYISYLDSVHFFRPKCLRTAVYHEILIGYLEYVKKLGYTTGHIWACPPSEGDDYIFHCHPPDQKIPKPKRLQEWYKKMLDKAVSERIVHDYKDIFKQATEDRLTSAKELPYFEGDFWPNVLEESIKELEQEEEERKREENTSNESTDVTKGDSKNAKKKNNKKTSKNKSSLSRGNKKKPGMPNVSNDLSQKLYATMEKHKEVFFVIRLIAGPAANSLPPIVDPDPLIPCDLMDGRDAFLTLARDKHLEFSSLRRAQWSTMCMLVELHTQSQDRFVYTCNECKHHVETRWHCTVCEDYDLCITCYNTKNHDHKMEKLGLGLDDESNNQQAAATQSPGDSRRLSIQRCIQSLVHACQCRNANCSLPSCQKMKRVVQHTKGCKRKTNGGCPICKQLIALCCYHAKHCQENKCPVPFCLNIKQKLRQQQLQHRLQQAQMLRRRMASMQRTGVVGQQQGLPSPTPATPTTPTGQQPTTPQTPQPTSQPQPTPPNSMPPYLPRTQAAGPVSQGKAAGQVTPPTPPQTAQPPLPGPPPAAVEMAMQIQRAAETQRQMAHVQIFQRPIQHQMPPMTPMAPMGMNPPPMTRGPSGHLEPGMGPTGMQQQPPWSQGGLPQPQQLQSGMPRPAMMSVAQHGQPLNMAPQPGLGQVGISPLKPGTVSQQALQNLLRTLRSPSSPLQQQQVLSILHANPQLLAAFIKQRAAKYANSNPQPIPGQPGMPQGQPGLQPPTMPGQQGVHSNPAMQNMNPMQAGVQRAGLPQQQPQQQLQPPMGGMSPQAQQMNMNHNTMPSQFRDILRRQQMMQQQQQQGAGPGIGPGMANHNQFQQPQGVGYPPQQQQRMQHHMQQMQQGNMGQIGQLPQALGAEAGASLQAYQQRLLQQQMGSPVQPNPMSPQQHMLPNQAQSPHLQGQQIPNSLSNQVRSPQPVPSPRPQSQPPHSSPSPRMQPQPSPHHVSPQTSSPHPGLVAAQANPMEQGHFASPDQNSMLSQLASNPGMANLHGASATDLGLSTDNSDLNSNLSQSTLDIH", "chain of UniProt Q16774 (whole entry, unmodified, looked up)": "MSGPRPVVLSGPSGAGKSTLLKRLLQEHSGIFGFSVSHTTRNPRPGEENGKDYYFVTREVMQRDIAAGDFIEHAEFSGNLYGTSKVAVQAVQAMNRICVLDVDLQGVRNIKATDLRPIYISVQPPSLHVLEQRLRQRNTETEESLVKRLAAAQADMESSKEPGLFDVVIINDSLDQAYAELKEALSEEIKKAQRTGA", "chain of UniProt Q9I4X0 (whole entry, looked up)": "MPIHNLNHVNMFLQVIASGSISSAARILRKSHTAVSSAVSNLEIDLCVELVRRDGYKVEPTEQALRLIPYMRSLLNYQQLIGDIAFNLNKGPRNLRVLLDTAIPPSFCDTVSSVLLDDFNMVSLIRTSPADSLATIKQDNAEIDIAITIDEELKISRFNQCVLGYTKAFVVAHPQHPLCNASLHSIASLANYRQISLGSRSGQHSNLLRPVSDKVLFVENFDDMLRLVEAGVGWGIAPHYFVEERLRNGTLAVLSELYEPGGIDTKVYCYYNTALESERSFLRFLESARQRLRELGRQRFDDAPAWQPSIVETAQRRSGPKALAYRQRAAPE"}
{"Structure (SMILES)": "O=C(O)[C@@H]1CCCN1c1ncnc2[nH]cnc12 (racemic)", "target": "DDB1- and CUL4-associated factor 7 (Homo sapiens, UniProt P61962)", "test": "binding, affinity selection mass spectrometry", "how to read": "baseline: other proteins in batch", "measurement": "fold enrichment", "result": 0.87}
{"Structure (SMILES)": "COC(=O)c1cccc(C(=O)c2c[nH]c3ccc(OC)cc23)n1", "target": "AHR (Homo sapiens, UniProt P35869)", "test": "reporter gene, agonist, XRE luciferase", "test system": "HepG2", "how to read": "baseline: ITE", "measurement": "Emax", "result": "60 ± 6%"}
{"Structure (SMILES)": "Cc1cc(NS(=O)(=O)c2ccc(N)cc2)no1", "target": "folP (Bacteria, UniProt P0AC13)", "test": "CETSA HiBiT", "test system": "Escherichia coli, whole cells", "setting": "concentration not given", "how to read": "baseline: DMSO", "measurement": "melting temperature shift", "result": "2 °C"}
{"Structure (SMILES)": "c1coc(-c2n[nH]cc2-c2ccnc3ccccc23)c1", "target": "Serine/threonine-protein kinase STE7 homolog (HST7, Candida albicans, UniProt Q5A6T5)", "test": "kinase binding, MIB/MS competition", "test system": "Candida albicans lysate", "setting": "1 µM", "how to read": "baseline: DMSO, negative = stronger binding", "measurement": "log2 fold change", "result": 0.08}
{"Structure (SMILES)": "Nc1ncnc2c1ncn2[C@@H]1O[C@H](COP(=O)(O)CP(=O)(O)OP(=O)(O)O)[C@@H](O)[C@H]1O", "target": "P2X purinoceptor 1 (P2RX1, Homo sapiens, UniProt P51575, D170A)", "test": "saturation binding", "setting": "103 nM", "measurement": "specific binding", "result": "348 corrected cpm and 408 corrected cpm"}
{"Structure (SMILES)": "CCCCCCCCCCCCC/C=C/[C@@H](O)[C@H](CO)NC(=O)CCCCCCCCCCCCCCCCC", "target": "Protein SET (SET, Homo sapiens, UniProt Q01105, Y135C)", "test": "lipid binding, GFP pull-down LC-MS/MS", "test system": "A549 overexpressing GFP-tagged protein", "how to read": "baseline: eluate plus flow-through", "measurement": "lipid fraction bound", "result": "72.7%"}
{"Structure (SMILES)": "COc1cc(C#CC(=O)c2ccccc2)ccc1O", "target": "mvfR (Pseudomonas aeruginosa, UniProt Q9I4X0)", "test": "receptor binding", "setting": "concentration not given, 1.5 h, added: PQS at 1:1 ratio", "how to read": "baseline: control", "measurement": "binding", "result": "87%"}
{"Structure (SMILES)": "Cc1cc2ccccc2c2ccc3ccccc3c12", "target": "Aryl hydrocarbon receptor (Danio rerio, UniProt Q9YGV3)", "test": "reporter gene, agonist, luciferase reporter", "test system": "ZF-4", "setting": "10000 µM", "how to read": "baseline: vehicle control", "measurement": "fold change", "result": 4.94}
{"Structure (SMILES)": "Nc1nc2c(ncn2[C@@H]2O[C@H](COP(=O)(O)O)[C@@H](O)[C@H]2O)c(=O)[nH]1", "target": "GUK1 (Homo sapiens, UniProt Q16774)", "test": "ITC", "setting": "concentration not given", "measurement": "-TΔS of binding", "result": "2.57 kcal/mol"}
{"Structure (SMILES)": "CC1(C)S[C@@H]2[C@H](NC(=O)[C@H](N)c3ccccc3)C(=O)N2[C@H]1C(=O)O", "target": "T1, DNA aptamer", "test": "ITC", "measurement": "Kd", "result": "1800 nM"}
{"Structure (SMILES)": "CC[C@@H]1[C@H](F)C(=O)N[C@@H]1COc1nccc2cc(C(N)=O)c(OC)cc12", "target": "NEK9 (Homo sapiens, UniProt Q8TD19)", "test": "ATP-site probe binding, ActivX profiling", "test system": "THP-1 cell lysate", "setting": "0.2 mM, Lys2 site", "measurement": "inhibition", "result": "8.3%"}
{"Structure (SMILES)": "[O-][S+]1CCCCS1 (stereo not shown)", "target": "SOD1 (Homo sapiens, UniProt P00441, G94A)", "test": "intact protein LC-MS", "test system": "SOD1 G93A transgenic mice, whole blood", "setting": "intravenous, 10 mg/kg, 2 h", "measurement": "target engagement", "result": "56.4% and 55%"}
{"Structure (SMILES)": "COc1cc(-c2cc(C(C)=O)n3ccccc23)c(OC)cc1Cn1ccnc1", "target": "EP300 (Homo sapiens, UniProt Q09472)", "measurement": "ΔTm", "result": "5.9 °C"}
{"Structure (SMILES)": "Cc1cc2nc3c(=O)[nH]c(=O)nc-3n(C[C@H](O)[C@H](O)[C@H](O)CO)c2cc1C", "target": "T2, FMN riboswitch RNA, two annealed strands (Fusobacterium nucleatum)", "test": "competitor, MALDI-TOF-MS", "setting": "100 µM, added: riboflavin 150 µM", "measurement": "binding", "result": "binds"}
{"Structure (SMILES)": "CCCCc1cn2c(N)nc3ccccc3c2n1", "target": "TLR8 (Homo sapiens, UniProt Q9NR97)", "test": "reporter gene, agonist, NF-κB reporter", "test system": "HEK-Blue TLR8", "measurement": "EC50", "result": "inactive"}
{"Structure (SMILES)": "CC(=C/C(=O)O)/C=C/C=C(\\C)C1C=C2C(C)(C)CCCC2(C)O1 (stereo not shown)", "target": "Rhodopsin (RHO, Homo sapiens, UniProt P08100, E181K)", "test": "ER retention, immunostaining co-localization, measured: opsin with calnexin", "test system": "COS-7 transfected E181K", "setting": "30.00 µM", "measurement": "Pearson correlation coefficient", "result": 0.43}
{"note": "Some of these lines once more:"}
{"Structure (SMILES)": "[O-][S+]1CCCCS1 (stereo not shown)", "target": "SOD1 (Homo sapiens, UniProt P00441, G94A)", "test": "intact protein LC-MS", "test system": "SOD1 G93A transgenic mice, whole blood", "setting": "intravenous, 10 mg/kg, 2 h", "measurement": "target engagement", "result": "56.4% and 55%"}
{"Structure (SMILES)": "CC[C@@H]1[C@H](F)C(=O)N[C@@H]1COc1nccc2cc(C(N)=O)c(OC)cc12", "target": "NEK9 (Homo sapiens, UniProt Q8TD19)", "test": "ATP-site probe binding, ActivX profiling", "test system": "THP-1 cell lysate", "setting": "0.2 mM, Lys2 site", "measurement": "inhibition", "result": "8.3%"}
{"Structure (SMILES)": "CC1(C)S[C@@H]2[C@H](NC(=O)[C@H](N)c3ccccc3)C(=O)N2[C@H]1C(=O)O", "target": "T1, DNA aptamer", "test": "ITC", "measurement": "Kd", "result": "1800 nM"}
